{"data": "Experimental data pooled from the literature", "note": "Every numbered part comes from another study and shows a few of its results, in no order."}
{"data": "Sample 1", "target": "RING finger protein unkempt homolog, zinc fingers 1-6, GST-SBP tag (UNK, Homo sapiens, UniProt Q9C0B0, residues 30-357)", "technique": "RNA Bind-n-Seq", "molecule type": "RNA", "sample": "in vitro", "tested at": "not given", "notes": "RNA with constant flanks, human-mouse chimeric sites, ends assumed", "reference": "input RNA pool", "reading": "higher = stronger binding", "Construct (chain)": "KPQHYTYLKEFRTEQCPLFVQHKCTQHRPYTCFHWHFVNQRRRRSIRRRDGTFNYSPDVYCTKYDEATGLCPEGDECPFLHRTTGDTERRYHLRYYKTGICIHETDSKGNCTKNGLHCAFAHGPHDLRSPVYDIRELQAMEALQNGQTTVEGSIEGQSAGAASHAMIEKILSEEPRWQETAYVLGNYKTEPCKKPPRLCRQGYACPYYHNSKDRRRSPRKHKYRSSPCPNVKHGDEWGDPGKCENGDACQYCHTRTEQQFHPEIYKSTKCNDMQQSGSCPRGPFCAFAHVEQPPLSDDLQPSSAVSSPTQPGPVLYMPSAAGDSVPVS"}
{"Strand": "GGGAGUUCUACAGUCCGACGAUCUGACAAGCACGAGCAUCAGCCAUGCCUUUCUUGGACAUACAGAAAAAGCUGGGCAUCAGCCUGGACCGGCACUUUAUGUUCCUAAGCGCAGAACAGCCCUAUAAGAACGCCGCUCGGUGCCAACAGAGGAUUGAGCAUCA", "bound/input enrichment": "0.0751 ratio"}
{"Strand": "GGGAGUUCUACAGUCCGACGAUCGACUUUGGAACUGGUCCUCGCAACGCAGCCUUCUAUAGCCCUCAUGGACAUAUAUUAGUGCUGGCUGGAUUUGGAAAUCUUCGAGGACAAAUGGAAGUGUGGGAUGUUAAAAACUACAAGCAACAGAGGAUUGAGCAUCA", "bound/input enrichment": "0.31 ratio"}
{"Strand": "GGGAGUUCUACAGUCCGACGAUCGAAUCCUACUCAGGCGGAUUUUGCAACACCAAGCUCACAGCAGCAGCUCCAUAGUCACAGUAGGGUAGCUUUAGGGCUCUGUGGCCAGGGUUUUAUUCACAUGCAGGUUUGGAAAAUGUACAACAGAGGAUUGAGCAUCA", "bound/input enrichment": "0.724 ratio"}
{"Strand": "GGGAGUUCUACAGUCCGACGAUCAAAGAAUGGAUAGAGUGUGCACAUGGAAUCGGUGGGACCCGGGCGAAAAAGGAGUGCAAGAUAGAGUUCGAUGACUUCGAAGAGUGCUUGCUUCGGUACAAAACGAUGAGGCGAAUGCAUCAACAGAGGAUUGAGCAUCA", "bound/input enrichment": "0.467 ratio"}
{"Strand": "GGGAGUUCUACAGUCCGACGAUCUCAGAAGCUGUGCUGGGUCACUUUUCAUAUCCAGAUCCUUCACAGUGGACAGAUGAAGAAUUAGGUAUCCCUCCUGAUGACGAGGACUGACACUGUAAACUCUCUGGACGAGUAGGAGCACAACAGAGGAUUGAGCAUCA", "bound/input enrichment": "0.73 ratio"}
{"Strand": "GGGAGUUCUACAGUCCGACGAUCCCCUCCCCGGGCCACCCACCCCUCCCGGCUCCCCGCCGAGAUCCAGGUUUCUUCUUAUUUCAUAGCCAAUAAGAAAAAUGUUCUACGCACAUUUUGUUCUCAGUAAACGAGGGCCUCUGGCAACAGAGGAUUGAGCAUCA", "bound/input enrichment": "1.02 ratio"}
{"Strand": "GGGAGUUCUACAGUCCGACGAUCAGCACAACCCCAGCAAAGCUAAGAAAUCCUUGUACAAGUGAACAAAACUGCACCAGCCCAUUUAGCUACAAAAAUGUGCUCAGUCUUACUGACAGAGGAGAAGUAUUCAAUGAACUUGUUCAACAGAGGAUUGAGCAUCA", "bound/input enrichment": "0.724 ratio"}
{"Strand": "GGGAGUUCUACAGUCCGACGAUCUCCUGGUCGUGUCCCAGUGCAGGACGAUGUGAACAAAAACUCAAAGCGGACCCUCUAUUGUAGUUCUUGAUUCUCGAAAUGUGCUAUUGUUUUUAAACUUUUUUUUUUUUUUUUUAAAGACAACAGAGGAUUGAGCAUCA", "bound/input enrichment": "0.799 ratio"}
{"Strand": "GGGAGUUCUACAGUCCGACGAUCAGUGUGCAGGAAUUCAUGACCUUUACAAGUCAACUGAUUGUGGAGCGCUCGGGGAAAGGCAGCAGAGCUUCUGUCAAAGAACAAGAGUAUCUGUGCCAUGUCUACGUCCGGAGCGACAGUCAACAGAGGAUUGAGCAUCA", "bound/input enrichment": "0.104 ratio"}
{"Strand": "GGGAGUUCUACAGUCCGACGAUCAUCAAAUACUUUGGGGACAUCAUUAGUGUGGGACAGAGACUGUUGCAAGGAGCUCGGAUUUUAGGAAUUCCUGUUAUCAUAACGGAACAAUACCCCAAAGGACUUGGCAGCACCGUUCAACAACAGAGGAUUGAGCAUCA", "bound/input enrichment": "0.467 ratio"}
{"Strand": "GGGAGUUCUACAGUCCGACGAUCAACAUUUUGUCAAAUUGUUAUGUUCCUGUGAAACAAGUGAACACUCUGAUACACUUCAUUUAGUUGUACAUCUGUAUGAUAGAGAAAUGUAAAUAUGUUAAUCCAAGCAAUGUGUCACUUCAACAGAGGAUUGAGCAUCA", "bound/input enrichment": "0.28 ratio"}
{"data": "Sample 2", "target": "Sal-like protein 4, full length isoform A (SALL4, Homo sapiens, UniProt Q9UJQ4, residues 1-1053)", "technique": "universal PBM", "molecule type": "double-stranded DNA, one strand shown", "sample": "in vitro", "tested at": "600 nM", "notes": "8-mer, flanks averaged, mean of replicates", "reading": "higher = stronger binding", "chain of UniProt Q9UJQ4 (whole entry, looked up)": "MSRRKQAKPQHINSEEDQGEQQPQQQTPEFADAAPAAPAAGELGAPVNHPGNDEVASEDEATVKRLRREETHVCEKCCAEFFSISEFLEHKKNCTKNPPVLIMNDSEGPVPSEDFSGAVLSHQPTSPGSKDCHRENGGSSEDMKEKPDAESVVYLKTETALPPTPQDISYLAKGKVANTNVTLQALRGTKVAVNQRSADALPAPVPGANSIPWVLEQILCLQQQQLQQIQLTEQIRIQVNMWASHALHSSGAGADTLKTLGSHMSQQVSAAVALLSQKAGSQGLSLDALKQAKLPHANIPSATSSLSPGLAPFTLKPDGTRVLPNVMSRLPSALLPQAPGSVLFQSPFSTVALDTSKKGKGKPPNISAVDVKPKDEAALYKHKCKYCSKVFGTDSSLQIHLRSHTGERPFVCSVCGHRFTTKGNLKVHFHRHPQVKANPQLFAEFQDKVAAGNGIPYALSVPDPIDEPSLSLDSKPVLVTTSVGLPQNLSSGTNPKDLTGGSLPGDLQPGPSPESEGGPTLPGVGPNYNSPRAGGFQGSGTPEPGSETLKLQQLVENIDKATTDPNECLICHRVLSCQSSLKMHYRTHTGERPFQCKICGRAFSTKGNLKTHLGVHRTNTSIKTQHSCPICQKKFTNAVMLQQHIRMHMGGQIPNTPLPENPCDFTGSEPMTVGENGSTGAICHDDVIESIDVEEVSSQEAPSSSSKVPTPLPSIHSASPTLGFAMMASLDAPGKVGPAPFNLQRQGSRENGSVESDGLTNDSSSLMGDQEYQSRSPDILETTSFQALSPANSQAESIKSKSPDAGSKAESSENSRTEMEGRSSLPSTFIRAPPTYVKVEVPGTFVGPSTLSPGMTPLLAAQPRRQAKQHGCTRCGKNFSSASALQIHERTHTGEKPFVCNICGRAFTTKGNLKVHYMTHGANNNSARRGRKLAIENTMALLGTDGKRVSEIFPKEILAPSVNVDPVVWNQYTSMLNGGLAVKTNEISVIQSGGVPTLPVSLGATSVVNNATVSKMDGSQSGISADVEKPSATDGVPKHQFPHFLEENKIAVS"}
{"Strand": "GACGAACA", "E-score": -0.0319}
{"Strand": "GGACTACC", "E-score": -0.107}
{"Strand": "GTTGCACA", "E-score": -0.0712}
{"Strand": "CGCTCGAG", "E-score": -0.169}
{"Strand": "GCCCACCA", "E-score": -0.221}
{"Strand": "CCCGTATC", "E-score": -0.216}
{"Strand": "CCTTAGAG", "E-score": -0.225}
{"Strand": "TAGCTTAA", "E-score": 0.146}
{"Strand": "AAAGGCTC", "E-score": -0.0329}
{"Strand": "CAAGGGAG", "E-score": -0.166}
{"Strand": "CTTTAATA", "E-score": 0.374}
{"Strand": "GGTCATAA", "E-score": 0.321}
{"Strand": "TAAACCCA", "E-score": 0.18}
{"Strand": "CATGACTC", "E-score": -0.0804}
{"Strand": "TGATACCA", "E-score": 0.0785}
{"Strand": "CAAAAATC", "E-score": 0.271}
{"Strand": "CAGATTCA", "E-score": 0.0971}
{"Strand": "AGAAACGA", "E-score": -0.0327}
{"data": "Sample 3", "target": "Histone acetyltransferase KAT6A, winged helix 1, GST fusion (KAT6A, Homo sapiens, UniProt Q92794, residues 1-85)", "technique": "protein binding microarray", "molecule type": "double-stranded DNA, one strand shown", "sample": "in vitro", "tested at": "not given", "notes": "8-mer, flanks averaged, mean of 2 arrays, mostly near background", "reference": "not given", "reading": "higher = stronger binding", "Residues (chain)": "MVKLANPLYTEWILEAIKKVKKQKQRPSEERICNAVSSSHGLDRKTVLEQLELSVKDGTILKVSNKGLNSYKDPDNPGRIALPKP"}
{"Strand": "CATGTGTA", "E-score": -0.0846}
{"Strand": "CGAGCGCA", "E-score": 0.257}
{"Strand": "GTATGACA", "E-score": -0.0722}
{"Strand": "GGTTTGAA", "E-score": -0.204}
{"Strand": "CCAGTTCC", "E-score": 0.0518}
{"Strand": "GTACATAC", "E-score": -0.0643}
{"Strand": "ATCTTGGG", "E-score": -0.143}
{"Strand": "CCGGTTAG", "E-score": 0.25}
{"Strand": "ACGCTTCA", "E-score": 0.0424}
{"Strand": "ACGCTATC", "E-score": 0.0469}
{"Strand": "ACGCTGCT", "E-score": -0.0139}
{"Strand": "AACGTTTG", "E-score": 0.0137}
{"Strand": "AGAGAAAC", "E-score": -0.158}
{"Strand": "GCCCTGCA", "E-score": -0.0541}
{"Strand": "AAGGCACC", "E-score": -0.0163}
{"Strand": "CACAGCCG", "E-score": 0.313}
{"Strand": "AGTGTATG", "E-score": -0.101}
{"Strand": "CCAACGAC", "E-score": -0.0255}
{"Strand": "GCCCAGCC", "E-score": -0.0532}
{"Strand": "CAAAATGA", "E-score": -0.0993}
{"Strand": "AGGCTCCG", "E-score": 0.0613}
{"Strand": "ATGTCAGG", "E-score": -0.128}
{"Strand": "CGGCAGAA", "E-score": 0.234}
{"Strand": "GTCTCGGA", "E-score": 0.0832}
{"Strand": "AATGCGCG", "E-score": 0.448}
{"data": "Sample 4", "target": "RNA binding protein fox-1 homolog 2, RRM domain, GST-SBP tag (RBFOX2, Homo sapiens, UniProt O43251-10, residues 100-194)", "technique": "RNA Bind-n-Seq", "molecule type": "RNA", "sample": "in vitro", "tested at": "365 nM", "notes": "natural RNA segment, single round, ends assumed", "reference": "no-protein control", "reading": "higher = stronger binding"}
{"Strand": "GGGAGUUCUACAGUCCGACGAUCGCCAGAAAAUUUCACUAGGUCAGUAAUUUAAACCUUGGAUCUUCAAAAAAUAAAAUAAUGUGAAGCAAAACCAACUAAAAAGUGAUUCUUGCACAUGAACUGUCACAUGUUGGAAUUCUCGGGUGCCAA", "RBNS enrichment (R)": 0.555}
{"Strand": "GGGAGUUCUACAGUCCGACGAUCGCAAUCCUGCCGCUAUAGUGAGCUAAUGUCCUGAAUCCAAAGGCUUCAGAAAAUUGCUUUUGCCUUUUUCAUGAAUGUUAAGCAGCAGCAUUGUGAGAUCGAUCUGUCCUUGGAAUUCUCGGGUGCCAA", "RBNS enrichment (R)": 0.619}
{"Strand": "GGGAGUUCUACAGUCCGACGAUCGUCCAACAUGAGAUUUUAGGAAUAGAAAUUUGCCGGCCAUUUGGAAAGUGAAAUGCCACUUAGUUCUCAAUUGAUGACAGUGUUUGAAUCAUCAUAAAAAAAAUACCUGCUGGAAUUCUCGGGUGCCAA", "RBNS enrichment (R)": 1.1}
{"Strand": "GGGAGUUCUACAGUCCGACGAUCGUCAUAUGAAGUAGAUGUGCAAUCAUGUAGACAGCAGGCCAAGGUGAUCAGUGGCUAAAGUUGAAAAGGGGUUGGUUUCUUUCAUAUAUGUAUGUGUGUGUACAUGCGCAUGGAAUUCUCGGGUGCCAA", "RBNS enrichment (R)": 1.03}
{"Strand": "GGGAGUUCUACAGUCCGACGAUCGGUGGGUCUCCACUGCGGGGCCAGGGCCACGCUCACCCCUCUCGCGGCCCCUCCUCUGCUUCCCCCUGAACCCACCCCCCACGGAAACCAGCCCUGCGGGCUAAGCAGGUUGGAAUUCUCGGGUGCCAA", "RBNS enrichment (R)": 0.395}
{"Strand": "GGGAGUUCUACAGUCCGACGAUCCAGAUGGCUGUACAACAGGUUGUAGGGCUGGUAGUAUGAGGUGCUUGGGAAGUUUUGUUGGGUCAAGAAGAGAGAACUCUGUUCUCGCACCACCGGGAUCUGUCCUGCAAUGGAAUUCUCGGGUGCCAA", "RBNS enrichment (R)": 1.14}
{"Strand": "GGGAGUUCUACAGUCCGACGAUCAGUAUUAAGGUGAAUUUUUUUUAAGUAUUUGGGAUAGGUUUGCAGACACCUACAGUUACUGAAGUCUCUCAGAAACUCAGGGAAUAUUGAAAACCCAUGCUGUGAACUGUUGGAAUUCUCGGGUGCCAA", "RBNS enrichment (R)": 0.44}
{"Strand": "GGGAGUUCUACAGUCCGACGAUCUGCAGCUGGGAGGAGGUCCGAGUACCUCUUCAGUGGCUCUCAGGGGCCAUUUCUGUGGAAGGGGUAGAGGUAGGUGGCACAGAAGAUGGGGCUUUGCGCUUGUAAAUACUUGGAAUUCUCGGGUGCCAA", "RBNS enrichment (R)": 0.864}
{"Strand": "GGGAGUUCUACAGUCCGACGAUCAAAGUGACUUCAAUAAAUUUAUAUUAAAAUAAACUUAAGAAAUUUACAAACAAGACCUUUUUAAAAUUUAAUUUAAUUUUUUAACUUAUUCACUUUAUAUCCCACUCACUUGGAAUUCUCGGGUGCCAA", "RBNS enrichment (R)": 0.56}
{"Strand": "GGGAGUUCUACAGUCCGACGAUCCAAAGAAAUACAGAUAUAUCUUAAAAAAAAAAGCAUUUUGUAUUAAAGAAUUGAAUUCUGAUCUCAAGCUCUCCCUGGUCUCUCCUUCUCUCCUGGGCCCUCCUGUCUCGUGGAAUUCUCGGGUGCCAA", "RBNS enrichment (R)": 0.817}
{"Strand": "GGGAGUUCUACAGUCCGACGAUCGCUACACUAAGAAAGAAAUAGAGUUUGACAUAAGUUGAGAUUUUAGUGUGAUCUGGAUGUGUGAUAAUCCAUUUUUAGAAUAUUAAUUUCAUUACCCAUUAAUUAUGGCCUGGAAUUCUCGGGUGCCAA", "RBNS enrichment (R)": 1.48}
{"Strand": "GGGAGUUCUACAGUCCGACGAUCUCUGUAUAUUUGAACUGCUCCUUAUGUGACAAAAUAGGUAGCUCUUGGGCUCAUGUCCUGGGUUUUGGCUCUUUAAUGAUUACUCCAGGCCAGCAUUUAGUCGUUUGAGAUGGAAUUCUCGGGUGCCAA", "RBNS enrichment (R)": 0.536}
